Measurements of several laboratories.
Numbered parts are unrelated; each lists some results of a single study. Substitutions count along the parent as printed.

Sample 1
Target: CCNB3, cyclin fold, Cln2 fusion (human)
Technique: yeast growth competition, sequencing
Matrix: yeast
Setting: weak parent motif
Reference: not given
Reading: higher = stronger binding
Quantity: normalised enrichment score
Parent: MICAL3 docking peptide (human); LQLRRQLSFSEDS
D12M: 0.32
R5I: 0.0279
Q2L: 0.318
E11W: 0.288
Q2C: 0.206
Q2W: 0.243

Sample 2
Target: Sal-like protein 4, full length isoform A (SALL4, Homo sapiens, UniProt Q9UJQ4, residues 1-1053)
Sequence of UniProt Q9UJQ4 (whole entry, looked up): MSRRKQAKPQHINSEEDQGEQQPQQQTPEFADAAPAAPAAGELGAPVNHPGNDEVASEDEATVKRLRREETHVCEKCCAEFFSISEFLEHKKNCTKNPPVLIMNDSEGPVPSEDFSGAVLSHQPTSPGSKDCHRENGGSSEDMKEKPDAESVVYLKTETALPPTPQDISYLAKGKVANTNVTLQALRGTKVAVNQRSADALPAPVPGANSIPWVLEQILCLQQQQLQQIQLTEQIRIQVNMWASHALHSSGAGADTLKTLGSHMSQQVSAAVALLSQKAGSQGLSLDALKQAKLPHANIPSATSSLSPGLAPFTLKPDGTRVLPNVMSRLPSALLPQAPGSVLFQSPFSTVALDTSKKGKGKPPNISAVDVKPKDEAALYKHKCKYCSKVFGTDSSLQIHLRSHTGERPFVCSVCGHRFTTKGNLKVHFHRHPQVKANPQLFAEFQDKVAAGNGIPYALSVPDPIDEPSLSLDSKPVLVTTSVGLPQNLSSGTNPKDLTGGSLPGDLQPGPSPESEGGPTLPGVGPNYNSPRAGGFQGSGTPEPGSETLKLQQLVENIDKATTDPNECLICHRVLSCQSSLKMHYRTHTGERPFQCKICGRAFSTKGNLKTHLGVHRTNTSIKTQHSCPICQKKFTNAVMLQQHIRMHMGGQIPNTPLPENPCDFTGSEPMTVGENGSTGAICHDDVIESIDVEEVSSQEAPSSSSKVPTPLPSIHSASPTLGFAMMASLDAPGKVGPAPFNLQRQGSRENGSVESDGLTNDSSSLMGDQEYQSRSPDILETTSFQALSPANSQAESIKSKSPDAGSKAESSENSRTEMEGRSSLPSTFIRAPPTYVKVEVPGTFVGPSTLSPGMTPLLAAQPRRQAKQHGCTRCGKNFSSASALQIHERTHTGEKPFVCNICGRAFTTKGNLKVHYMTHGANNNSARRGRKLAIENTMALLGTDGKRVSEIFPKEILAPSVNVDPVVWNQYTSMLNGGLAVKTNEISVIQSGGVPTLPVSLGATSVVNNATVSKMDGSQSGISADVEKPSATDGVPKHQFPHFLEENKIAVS
Technique: universal PBM
Molecule type: double-stranded DNA, one strand shown
Matrix: in vitro
Concentration: 600 nM
Setting: 8-mer, flanks averaged, mean of replicates
Reading: higher = stronger binding
Quantity: E-score
TGAGCCAA: 0.00718
AATCGAAC: 0.018
GCATAGAA: 0.0182
CGAAAAAC: 0.094
CGGACAGA: -0.301
AACAGAAG: 0.161
GCCGCAAC: -0.0715
AATCTAGG: 0.147
ATGAAAGC: 0.198
GACCTGGC: -0.33
CACCGGGG: -0.428

Sample 3
Target: Histone acetyltransferase KAT6A, winged helix 1, GST fusion (KAT6A, Homo sapiens, UniProt Q92794, residues 1-85)
Technique: protein binding microarray
Molecule type: double-stranded DNA, one strand shown
Matrix: in vitro
Concentration: not given
Setting: 8-mer, flanks averaged, mean of 2 arrays, mostly near background
Reference: not given
Reading: higher = stronger binding
Quantity: E-score
Residues (chain): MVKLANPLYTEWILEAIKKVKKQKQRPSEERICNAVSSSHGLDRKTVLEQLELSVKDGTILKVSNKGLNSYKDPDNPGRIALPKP
CTCTTAGA: -0.14
AATAGACG: 0.0186
GAGAAGCA: -0.185
GTATCCCA: -0.105
AAGGTGAG: -0.0241
CGACACCC: 0.0235

Other studies, line by line
PhoQ, residues 284 288 289 292 302 303 SSTLSG  fold induction (PhoP, residues 12 14 15 18 19 TQAIL (Escherichia coli, UniProt P23836); Sort-seq, item: YFP reporter; E. coli; PhoQ-PhoP variant library, with: 10 µM Mg2+; reference: high Mg2+ state, higher = stronger signaling): 13.7

Some of these lines once more (sample 2):
TGAGCCAA: 0.00718
AATCGAAC: 0.018
GCATAGAA: 0.0182
CGAAAAAC: 0.094
